Measurements collected from several papers.
A part holds a random share of what one study measured. Substitutions count along the parent as printed.

Study 1 — target: CCNE2, cyclin fold, Cln2 fusion (human); method: yeast growth competition, sequencing; medium: yeast; setting: strong parent motif; reference: not given; direction: higher = stronger binding
Starting sequence: CDC25A docking peptide (human); PPHRRRLLFACSP; partner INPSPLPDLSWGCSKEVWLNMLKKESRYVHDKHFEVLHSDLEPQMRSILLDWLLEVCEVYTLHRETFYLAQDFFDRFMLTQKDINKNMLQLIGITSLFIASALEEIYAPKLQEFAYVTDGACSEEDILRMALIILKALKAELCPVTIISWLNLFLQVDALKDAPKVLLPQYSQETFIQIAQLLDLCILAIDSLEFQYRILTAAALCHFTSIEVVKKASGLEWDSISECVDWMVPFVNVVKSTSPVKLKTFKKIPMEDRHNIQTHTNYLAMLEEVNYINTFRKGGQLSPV
`P2C`: “normalised enrichment score” 2.11.
For `H3L`, “normalised enrichment score” read 1.1.
`H3D` — result for “normalised enrichment score”: 1.35.
For `P2T`, “normalised enrichment score” read 2.1.
Under “normalised enrichment score”, `L8F` is recorded as 2.67.
`C11W` — result for “normalised enrichment score”: 0.882.
`F9E`: “normalised enrichment score” 1.09.
`P1L`: “normalised enrichment score” 1.48.
`P13E`: “normalised enrichment score” 2.44.
`P1Y` — result for “normalised enrichment score”: 2.32.
`L7W`: “normalised enrichment score” 1.16.
`R4N` — result for “normalised enrichment score”: 1.28.
Under “normalised enrichment score”, `L8K` is recorded as 2.25.
Under “normalised enrichment score”, `P13K` is recorded as 1.88.
For `R6M`, “normalised enrichment score” read 1.63.
`F9Y`: “normalised enrichment score” 1.15.
Under “normalised enrichment score”, `P2M` is recorded as 1.54.
`R5Y`: “normalised enrichment score” 0.522.
Under “normalised enrichment score”, `P1Q` is recorded as 1.94.
For `S12T`, “normalised enrichment score” read 2.15.
`P2A`: “normalised enrichment score” 1.07.
For `P1T`, “normalised enrichment score” read 1.46.
Under “normalised enrichment score”, `R6E` is recorded as 0.393.
For `L7T`, “normalised enrichment score” read 1.12.
`R5K F9L`: “normalised enrichment score” 0.614.

Study 2 — method: universal PBM; form: double-stranded DNA, one strand shown; medium: in vitro; tested at: 600 nM; direction: higher = stronger binding
Target: Sal-like protein 4, full length isoform A (SALL4, Homo sapiens, UniProt Q9UJQ4, residues 1-1053)
Chain of UniProt Q9UJQ4 (whole entry, looked up): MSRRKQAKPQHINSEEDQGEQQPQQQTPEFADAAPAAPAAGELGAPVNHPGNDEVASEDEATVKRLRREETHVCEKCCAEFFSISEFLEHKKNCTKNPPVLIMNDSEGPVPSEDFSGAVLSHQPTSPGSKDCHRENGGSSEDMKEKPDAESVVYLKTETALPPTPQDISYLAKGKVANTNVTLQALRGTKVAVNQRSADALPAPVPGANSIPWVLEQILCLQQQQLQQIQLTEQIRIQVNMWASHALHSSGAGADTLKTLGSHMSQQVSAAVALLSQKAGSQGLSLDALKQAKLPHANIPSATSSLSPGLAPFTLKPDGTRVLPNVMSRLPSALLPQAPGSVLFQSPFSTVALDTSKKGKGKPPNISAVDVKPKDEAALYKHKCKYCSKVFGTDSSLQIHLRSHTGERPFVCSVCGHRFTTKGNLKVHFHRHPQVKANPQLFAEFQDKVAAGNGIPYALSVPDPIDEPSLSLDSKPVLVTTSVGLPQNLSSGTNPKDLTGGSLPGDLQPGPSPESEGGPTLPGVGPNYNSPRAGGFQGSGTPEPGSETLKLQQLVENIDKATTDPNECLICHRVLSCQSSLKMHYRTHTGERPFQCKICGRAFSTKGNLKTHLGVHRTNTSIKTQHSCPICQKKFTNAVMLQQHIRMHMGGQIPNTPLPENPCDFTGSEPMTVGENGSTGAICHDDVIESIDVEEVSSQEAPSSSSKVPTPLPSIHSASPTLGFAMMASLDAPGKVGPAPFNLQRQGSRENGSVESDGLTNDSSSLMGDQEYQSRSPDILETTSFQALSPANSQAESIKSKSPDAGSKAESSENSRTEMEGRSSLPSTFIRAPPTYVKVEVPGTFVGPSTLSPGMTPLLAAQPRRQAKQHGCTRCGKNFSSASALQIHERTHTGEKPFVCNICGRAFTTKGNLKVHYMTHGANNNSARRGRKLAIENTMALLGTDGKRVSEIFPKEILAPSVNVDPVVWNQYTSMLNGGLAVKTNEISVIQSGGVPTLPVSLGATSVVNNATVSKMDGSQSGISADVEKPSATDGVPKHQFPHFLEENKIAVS
Setting: 8-mer, flanks averaged, mean of replicates
With `CCCGGGGA` the E-score was -0.334.
With `CGGTTTTA` the E-score was -0.0891.
With `AGTCACGC` the E-score was -0.176.
`ACCCTTCT` has an E-score of -0.0218.
The E-score of `CATCTAGA` is reported as 0.0979.
`ACATTGGA` has an E-score of 0.0436.
The E-score of `GTCATTGA` is reported as 0.173.
For `CGGGGTCA`, the E-score was -0.23.
With `CAGGAACG` the E-score was -0.148.
The E-score of `ACGCCCTC` is reported as -0.119.
`GCATAAAA` has an E-score of 0.299.
`CTAACTCA` gave an E-score of 0.0159.
`GAGAATCC` has an E-score of -0.194.
With `ATGTACCC` the E-score was 0.029.
The E-score of `GCGGACCC` is reported as -0.386.
`AGGCCGTA` gave an E-score of -0.0918.
`AAATGCCG` gave an E-score of -0.0486.
The E-score of `AGCCTTGA` is reported as -0.0215.

Study 3 — method: RNA Bind-n-Seq; form: RNA; medium: in vitro; tested at: 200 nM; setting: whole 134-nt RNA, ends assumed; together with: 150 mM KCl; reference: input library; direction: higher = stronger binding
Target: Ras GTPase-activating protein-binding protein 1, full length (G3BP1, Homo sapiens, UniProt Q13283)
Chain of UniProt Q13283 (whole entry, looked up): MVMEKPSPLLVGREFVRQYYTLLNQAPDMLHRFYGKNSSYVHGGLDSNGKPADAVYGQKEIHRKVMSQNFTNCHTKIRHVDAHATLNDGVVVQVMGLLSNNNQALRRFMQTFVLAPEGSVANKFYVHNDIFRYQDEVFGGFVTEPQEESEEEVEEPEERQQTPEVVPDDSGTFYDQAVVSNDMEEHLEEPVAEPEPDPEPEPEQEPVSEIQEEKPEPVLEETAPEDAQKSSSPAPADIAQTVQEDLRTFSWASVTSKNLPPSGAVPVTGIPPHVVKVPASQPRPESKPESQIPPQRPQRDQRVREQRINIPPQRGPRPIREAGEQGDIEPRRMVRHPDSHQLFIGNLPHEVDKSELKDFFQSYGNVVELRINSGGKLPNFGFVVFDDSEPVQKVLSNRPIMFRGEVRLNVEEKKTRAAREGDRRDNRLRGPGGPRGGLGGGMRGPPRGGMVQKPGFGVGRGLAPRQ
With `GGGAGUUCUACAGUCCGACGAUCCUGUGCUACACAUCGUAUGUACCGAAUCGGAAAAAAAGGGGAAAAAAAGGAAAAAAAGGGGAAAGUAUUAUGUUACGCCGUUCGGAUCUGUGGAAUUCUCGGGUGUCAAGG` the log2 enrichment was -0.991.
The log2 enrichment of `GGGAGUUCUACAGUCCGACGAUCCUGUGCUACACAUCGUAUGUACCGAAUCGGUUUUUUUGGGUUUUUUUGGGUUUUUUUGGGGAAAGUAUUAUGUUACGCCGUUCGGAUCUGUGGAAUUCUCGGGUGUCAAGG` is reported as -1.05.
For `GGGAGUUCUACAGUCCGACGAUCUAACUUUAGAGGAGGAUCUGAUGGAUAUGGCAGUGGACGUGGAUUUGGGGAUGGCUAUAAUGGGUAUAGAGGAGGACCUGGAGGUGGCAAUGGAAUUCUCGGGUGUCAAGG`, the log2 enrichment was 0.215.
`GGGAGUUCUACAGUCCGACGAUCAGUCCUGUGCUACACAUCGUAUGUACCGAAUCAAAUUUUUAAACCCAAAUUUUUAAAAAAGUAUUAUGUUACGCCGUUCGGAUCUGCACUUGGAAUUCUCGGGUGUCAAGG` gave a log2 enrichment of -0.609.
`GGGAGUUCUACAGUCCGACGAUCCUCAAGUCCUGUGCUACACAUCGUAUGUACCGAAUCGGGCCGGGGCCGGGCCGGAAAGUAUUAUGUUACGCCGUUCGGAUCUGCACUUCCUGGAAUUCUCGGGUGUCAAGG` has a log2 enrichment of -0.215.
For `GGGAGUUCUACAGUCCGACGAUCCCUCAAGUCCUGUGCUACACAUCGUAUGUACCGAAUCGGAAAGGAAAGGUGGAAAGUAUUAUGUUACGCCGUUCGGAUCUGCACUUCCAGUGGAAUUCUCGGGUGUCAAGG`, the log2 enrichment was -0.207.
`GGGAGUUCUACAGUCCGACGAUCUGGAGGAGCCAUAGAAUAUUAAGGAUGAAUUCAGGAAGGCCUGAGACCAUGGAAAACUUGCCUGCUCUCUACACUAUUUUCCAAGGAGAGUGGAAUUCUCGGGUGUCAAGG` has a log2 enrichment of -0.482.
`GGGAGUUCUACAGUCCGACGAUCACCAUGCAGGUGGGCAUCUUUGGGAAGUGGGGCAACGGGGGGAUAGGGAGGGGGGUAACACUUUGGGAACAGGUGGUCCCAGGUCGUUUCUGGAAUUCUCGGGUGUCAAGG` gave a log2 enrichment of 1.
`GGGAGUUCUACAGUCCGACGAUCAGUCCUGUGCUACACAUCGUAUGUACCGAAUCGGGGAAAAGGGGAAAAGGAAAAGGGAAAGUAUUAUGUUACGCCGUUCGGAUCUGCACUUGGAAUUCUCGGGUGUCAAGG` has a log2 enrichment of -0.345.

Study 4 — method: DHFR PCA, deep sequencing; medium: yeast; together with: (+)-ABA 200 µM; reference: wild-type fitted maximum; direction: higher = stronger binding
Target: ABI1, truncated, D143A, DHFR fusion (Arabidopsis thaliana)
Setting: methotrexate growth selection, single substitutions
Starting sequence: PYL1, truncated, DHFR fusion (Arabidopsis thaliana); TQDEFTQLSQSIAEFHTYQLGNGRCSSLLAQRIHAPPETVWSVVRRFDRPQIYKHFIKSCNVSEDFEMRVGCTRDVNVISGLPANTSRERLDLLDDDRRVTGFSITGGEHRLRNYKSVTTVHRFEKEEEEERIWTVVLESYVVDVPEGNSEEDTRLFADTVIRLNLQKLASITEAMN
`M176K` — result for “relative binding score”: 103%.
`T154S` — result for “relative binding score”: 50.9%.
`L82H`: “relative binding score” 24.8%.
`Q31C` — result for “relative binding score”: 55.3%.
For `R46F`, “relative binding score” read 31.3%.
`V121I`: “relative binding score” 98.5%.
`M176E`: “relative binding score” 99.8%.
Under “relative binding score”, `P83A` is recorded as 93.6%.
Under “relative binding score”, `K168H` is recorded as 97.5%.
`K168S`: “relative binding score” 98.9%.
For `Q167H`, “relative binding score” read 95.2%.
`R123I`: “relative binding score” 70%.
`P37G` — result for “relative binding score”: 58.1%.
For `V78Q`, “relative binding score” read 17.5%.
`R24Q`: “relative binding score” 109%.
Under “relative binding score”, `R32T` is recorded as 101%.
`G23D`: “relative binding score” 96.4%.
`I162D` — result for “relative binding score”: -7.02%.

Excerpt of the above (study 2):
With `CGGTTTTA` the E-score was -0.0891.
With `AGTCACGC` the E-score was -0.176.
`ACCCTTCT` has an E-score of -0.0218.
The E-score of `CATCTAGA` is reported as 0.0979.
`ACATTGGA` has an E-score of 0.0436.
The E-score of `GTCATTGA` is reported as 0.173.
For `CGGGGTCA`, the E-score was -0.23.
With `CAGGAACG` the E-score was -0.148.
The E-score of `ACGCCCTC` is reported as -0.119.
`GCATAAAA` has an E-score of 0.299.
`CTAACTCA` gave an E-score of 0.0159.
